Assay results of several laboratories.
A part holds a random share of what one study measured.
UniProt P00519, sequence (whole entry, unmodified, looked up): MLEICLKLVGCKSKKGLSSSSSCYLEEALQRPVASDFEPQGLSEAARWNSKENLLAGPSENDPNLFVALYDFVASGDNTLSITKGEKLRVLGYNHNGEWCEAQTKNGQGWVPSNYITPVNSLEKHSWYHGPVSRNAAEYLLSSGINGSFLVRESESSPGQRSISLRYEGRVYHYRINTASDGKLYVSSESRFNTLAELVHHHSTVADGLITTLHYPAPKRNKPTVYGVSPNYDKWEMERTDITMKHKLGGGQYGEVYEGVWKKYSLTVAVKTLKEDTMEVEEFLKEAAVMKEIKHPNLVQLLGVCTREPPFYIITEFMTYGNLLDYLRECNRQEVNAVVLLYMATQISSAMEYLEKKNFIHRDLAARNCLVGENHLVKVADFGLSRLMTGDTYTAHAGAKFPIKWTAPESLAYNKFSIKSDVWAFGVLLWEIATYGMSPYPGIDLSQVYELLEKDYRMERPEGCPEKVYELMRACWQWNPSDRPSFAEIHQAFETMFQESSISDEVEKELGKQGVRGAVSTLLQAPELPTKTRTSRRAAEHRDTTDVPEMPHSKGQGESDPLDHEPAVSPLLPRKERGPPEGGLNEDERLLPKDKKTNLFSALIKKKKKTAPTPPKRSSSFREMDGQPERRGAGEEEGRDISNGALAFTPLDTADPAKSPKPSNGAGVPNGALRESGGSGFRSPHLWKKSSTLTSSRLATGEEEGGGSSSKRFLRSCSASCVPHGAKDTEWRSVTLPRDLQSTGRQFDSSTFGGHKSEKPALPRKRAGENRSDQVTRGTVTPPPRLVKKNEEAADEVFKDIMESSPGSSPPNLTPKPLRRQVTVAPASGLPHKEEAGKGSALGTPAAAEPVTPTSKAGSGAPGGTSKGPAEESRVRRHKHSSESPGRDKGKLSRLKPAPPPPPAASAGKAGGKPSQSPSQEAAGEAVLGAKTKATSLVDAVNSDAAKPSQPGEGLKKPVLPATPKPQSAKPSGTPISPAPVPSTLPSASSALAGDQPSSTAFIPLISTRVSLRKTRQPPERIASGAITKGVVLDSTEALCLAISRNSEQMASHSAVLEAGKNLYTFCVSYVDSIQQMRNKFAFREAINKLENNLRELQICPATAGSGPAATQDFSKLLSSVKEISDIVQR
UniProt O00506, sequence (whole entry, looked up): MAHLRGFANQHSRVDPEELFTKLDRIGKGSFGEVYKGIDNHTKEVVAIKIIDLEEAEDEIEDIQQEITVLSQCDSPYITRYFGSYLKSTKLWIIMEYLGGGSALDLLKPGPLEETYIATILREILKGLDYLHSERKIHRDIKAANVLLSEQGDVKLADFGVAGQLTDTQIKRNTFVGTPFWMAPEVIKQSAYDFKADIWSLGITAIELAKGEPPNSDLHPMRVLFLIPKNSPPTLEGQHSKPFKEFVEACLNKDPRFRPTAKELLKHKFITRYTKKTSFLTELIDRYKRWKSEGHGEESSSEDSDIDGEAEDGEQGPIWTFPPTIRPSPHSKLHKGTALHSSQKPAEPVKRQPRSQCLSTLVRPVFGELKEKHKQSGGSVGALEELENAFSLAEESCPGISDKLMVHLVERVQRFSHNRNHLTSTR
UniProt Q13470, sequence (whole entry, looked up): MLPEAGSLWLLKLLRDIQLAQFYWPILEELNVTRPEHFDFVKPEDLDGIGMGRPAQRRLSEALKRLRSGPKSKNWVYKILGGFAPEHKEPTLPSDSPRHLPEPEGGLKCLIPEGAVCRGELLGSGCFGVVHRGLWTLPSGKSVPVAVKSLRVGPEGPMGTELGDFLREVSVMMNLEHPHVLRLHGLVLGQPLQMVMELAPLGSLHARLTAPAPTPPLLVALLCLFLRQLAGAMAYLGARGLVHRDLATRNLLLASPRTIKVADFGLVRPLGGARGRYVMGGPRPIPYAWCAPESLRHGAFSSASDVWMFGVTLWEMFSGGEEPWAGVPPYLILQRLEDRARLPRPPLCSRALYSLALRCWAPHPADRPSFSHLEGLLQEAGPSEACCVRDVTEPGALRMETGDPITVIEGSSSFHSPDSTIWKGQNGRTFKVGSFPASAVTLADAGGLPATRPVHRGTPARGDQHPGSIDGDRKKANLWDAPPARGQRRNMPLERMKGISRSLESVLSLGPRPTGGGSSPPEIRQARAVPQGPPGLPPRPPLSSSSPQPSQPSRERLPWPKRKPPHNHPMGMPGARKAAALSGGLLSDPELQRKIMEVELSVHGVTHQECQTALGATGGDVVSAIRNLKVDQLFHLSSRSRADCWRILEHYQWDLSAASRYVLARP
UniProt Q04759, sequence (whole entry, looked up): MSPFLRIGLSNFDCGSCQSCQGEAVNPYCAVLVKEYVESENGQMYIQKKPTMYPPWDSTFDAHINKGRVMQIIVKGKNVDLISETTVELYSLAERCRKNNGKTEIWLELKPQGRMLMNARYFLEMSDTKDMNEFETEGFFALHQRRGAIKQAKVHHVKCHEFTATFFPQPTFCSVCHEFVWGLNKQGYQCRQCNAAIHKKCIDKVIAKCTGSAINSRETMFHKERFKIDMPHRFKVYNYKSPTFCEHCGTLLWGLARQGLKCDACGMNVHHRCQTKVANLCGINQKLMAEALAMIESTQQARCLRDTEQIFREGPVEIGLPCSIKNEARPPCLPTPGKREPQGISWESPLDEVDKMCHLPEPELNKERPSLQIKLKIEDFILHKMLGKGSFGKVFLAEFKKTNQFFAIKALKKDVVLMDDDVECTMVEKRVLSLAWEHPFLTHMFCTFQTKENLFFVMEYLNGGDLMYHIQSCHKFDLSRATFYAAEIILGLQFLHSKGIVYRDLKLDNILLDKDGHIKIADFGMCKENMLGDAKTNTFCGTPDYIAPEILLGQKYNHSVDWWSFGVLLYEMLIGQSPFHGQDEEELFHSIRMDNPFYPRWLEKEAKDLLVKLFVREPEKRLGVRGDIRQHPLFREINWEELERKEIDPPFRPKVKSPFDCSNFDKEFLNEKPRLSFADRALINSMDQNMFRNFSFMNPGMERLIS
UniProt Q8N5S9, sequence (whole entry, looked up): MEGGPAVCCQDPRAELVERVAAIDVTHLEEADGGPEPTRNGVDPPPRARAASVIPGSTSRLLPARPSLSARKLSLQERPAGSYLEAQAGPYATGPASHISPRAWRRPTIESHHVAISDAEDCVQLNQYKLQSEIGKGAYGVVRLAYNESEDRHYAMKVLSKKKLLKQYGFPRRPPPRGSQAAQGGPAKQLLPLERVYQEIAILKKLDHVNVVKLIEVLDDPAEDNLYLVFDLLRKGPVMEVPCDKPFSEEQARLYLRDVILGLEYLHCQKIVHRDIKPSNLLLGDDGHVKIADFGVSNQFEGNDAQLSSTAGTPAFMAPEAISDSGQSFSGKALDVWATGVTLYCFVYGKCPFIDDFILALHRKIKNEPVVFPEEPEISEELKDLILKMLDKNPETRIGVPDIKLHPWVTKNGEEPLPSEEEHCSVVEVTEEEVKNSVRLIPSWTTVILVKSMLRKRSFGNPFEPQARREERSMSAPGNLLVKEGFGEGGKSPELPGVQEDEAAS
UniProt P46734, sequence (whole entry, looked up): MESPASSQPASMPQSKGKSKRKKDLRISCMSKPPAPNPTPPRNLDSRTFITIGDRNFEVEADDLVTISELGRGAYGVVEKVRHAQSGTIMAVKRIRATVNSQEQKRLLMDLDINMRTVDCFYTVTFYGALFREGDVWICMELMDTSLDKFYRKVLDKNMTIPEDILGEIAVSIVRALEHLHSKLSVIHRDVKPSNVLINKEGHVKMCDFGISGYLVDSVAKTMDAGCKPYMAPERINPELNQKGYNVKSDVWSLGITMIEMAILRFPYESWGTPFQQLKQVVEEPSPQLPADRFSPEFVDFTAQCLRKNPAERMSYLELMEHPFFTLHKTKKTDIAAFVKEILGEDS

Block 1
Structure (SMILES): CC#CC(=O)N1CCC[C@H]1c1nc(-c2ccc(C(=O)Nc3ccccn3)cc2)c2c(N)nccn12
Read-out: enzyme activity
Mode: inhibitor
Tested at: 1 µM
The inhibition was 41% (YES1 (Homo sapiens, UniProt P07947)).
It gave 0% for inhibition (PRKCQ (Homo sapiens, UniProt Q04759)).
The inhibition was 12% (TNK1 (Homo sapiens, UniProt Q13470)).
For FGFR1 (Homo sapiens, UniProt P11362): inhibition read 32%.
For Tyrosine-protein kinase ABL1, phosphorylated (ABL1, Homo sapiens, UniProt P00519, F317L): inhibition read 19%.
The inhibition was 7% (CLK2 (Homo sapiens, UniProt P49760)).
The inhibition was 0% (KIT (Homo sapiens, UniProt P10721, A829P)).
The inhibition was 20% (CAMK1D (Homo sapiens, UniProt Q8IU85)).
It gave 34% for inhibition (Tyrosine-protein kinase ABL1, non-phosphorylated (ABL1, Homo sapiens, UniProt P00519)).

Block 2
Host: human
Sample: microsomes or S9
Tested at: 2 µM
Time: 0.5 h
`CCC1CC(=O)c2c(Cl)cccc2N1S(=O)(=O)c1ccc2ccccc2c1` (centres unmarked) gave a remaining compound of 2.11%.
`N#Cc1cnc(NCC2CCN(CC(O)c3ccccc3)CC2)cn1` (centres unmarked) has a remaining compound of over 100%.
`O=c1[nH]c2c(c(=O)n1-c1cccc(F)c1)[S+]([O-])CC2` (centres unmarked) gave a remaining compound of 92.2%.
`O=C(c1ccccc1)c1ccccc1Nc1cccc2c1N(c1ncccn1)CC2` has a remaining compound of 0.408%.
With `CCC1c2cccn2-c2sc3c(c2CN1C(=O)NCCCOC)CCCC3` (centres unmarked) the remaining compound was 2.9%.
`CCOC(=O)Cc1c(-c2cc3ccccc3n2C)[nH]c2ccccc12` gave a remaining compound of 0.268%.
`COc1cc(=O)[nH]cc1C(=O)NC1CCN(c2c(F)cccc2F)C1` (centres unmarked) has a remaining compound of 86.5%.
`CCOC(=O)C1CCN(c2nc(-c3ccc(S(C)(=O)=O)cc3)ncc2OC)CC1` has a remaining compound of 1.6%.

Block 3
Structure (SMILES): Nc1c(C(=O)NCc2ccc(C(=O)NCCCC3CCCCC3)cc2)cnn1-c1ccccc1
Read-out: cell-free assay
Method: competition with immobilised ligand
Tested at: 0.1 µM
The remaining binding was 100% (CAMKK1 (Homo sapiens, UniProt Q8N5S9)).
MAPKAPK2 (Homo sapiens, UniProt P49137) — remaining binding: 100%.
The remaining binding was 100% (Tyrosine-protein kinase JAK1, JH1 (JAK1, Homo sapiens, UniProt P23458)).
It gave 100% for remaining binding (NEK4 (Homo sapiens, UniProt P51957)).
GRK2 (Homo sapiens, UniProt P25098) — remaining binding: 100%.
It gave 94% for remaining binding (PIK3CD (Homo sapiens, UniProt O00329)).
STK25 (Homo sapiens, UniProt O00506) — remaining binding: 82%.
It gave 85% for remaining binding (MAP2K3 (Homo sapiens, UniProt P46734)).
It gave 100% for remaining binding (FLT3 (Homo sapiens, UniProt P36888, D835V)).
MAPK1 (Homo sapiens, UniProt P28482) — remaining binding: 100%.

Block 4
Target: Homeodomain-interacting protein kinase 1 (HIPK1, Homo sapiens, UniProt Q86Z02)
UniProt Q86Z02, sequence (whole entry, looked up): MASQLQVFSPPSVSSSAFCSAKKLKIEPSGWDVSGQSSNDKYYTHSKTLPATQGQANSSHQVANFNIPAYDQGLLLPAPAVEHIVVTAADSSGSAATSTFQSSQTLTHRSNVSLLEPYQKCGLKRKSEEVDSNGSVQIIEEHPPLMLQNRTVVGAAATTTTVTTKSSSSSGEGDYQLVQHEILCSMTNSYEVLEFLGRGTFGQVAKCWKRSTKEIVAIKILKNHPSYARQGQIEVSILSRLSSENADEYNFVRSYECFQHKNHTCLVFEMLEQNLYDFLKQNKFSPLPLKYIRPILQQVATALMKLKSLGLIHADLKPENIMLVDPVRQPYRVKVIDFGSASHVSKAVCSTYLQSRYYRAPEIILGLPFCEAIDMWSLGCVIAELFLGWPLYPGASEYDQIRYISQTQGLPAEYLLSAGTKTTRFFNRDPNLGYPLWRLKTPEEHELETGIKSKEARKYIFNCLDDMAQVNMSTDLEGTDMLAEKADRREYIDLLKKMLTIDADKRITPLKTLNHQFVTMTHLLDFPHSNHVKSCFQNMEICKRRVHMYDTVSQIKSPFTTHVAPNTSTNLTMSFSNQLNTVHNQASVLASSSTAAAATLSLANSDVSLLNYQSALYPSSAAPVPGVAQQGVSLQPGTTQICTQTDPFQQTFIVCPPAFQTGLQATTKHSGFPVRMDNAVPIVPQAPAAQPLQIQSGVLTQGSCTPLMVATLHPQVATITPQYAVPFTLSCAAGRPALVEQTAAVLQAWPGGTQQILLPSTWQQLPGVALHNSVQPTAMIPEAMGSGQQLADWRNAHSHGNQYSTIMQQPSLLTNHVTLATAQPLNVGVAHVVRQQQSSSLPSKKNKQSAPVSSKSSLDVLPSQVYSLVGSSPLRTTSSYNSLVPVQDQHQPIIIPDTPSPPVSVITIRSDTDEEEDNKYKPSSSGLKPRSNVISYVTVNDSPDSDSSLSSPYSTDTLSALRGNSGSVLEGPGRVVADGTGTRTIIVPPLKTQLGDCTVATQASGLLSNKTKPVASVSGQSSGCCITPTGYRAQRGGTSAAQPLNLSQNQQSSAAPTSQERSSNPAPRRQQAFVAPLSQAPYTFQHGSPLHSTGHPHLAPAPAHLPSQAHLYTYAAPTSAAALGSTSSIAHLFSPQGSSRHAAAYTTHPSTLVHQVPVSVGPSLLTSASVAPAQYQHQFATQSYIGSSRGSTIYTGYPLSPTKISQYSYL
Read-out: enzyme activity
Mode: inhibitor
Tested at: 0.5 µM
Reference: control
`O=S(=O)(c1cccc2cnccc12)N1CCCNCC1` gave a remaining activity of 96.8%.
`O=C(O)c1ccc2c3c1cccc3c(=O)n1c3ccccc3nc21` gave a remaining activity of 104%.
`NCCNc1ncc(C(N)=O)c(Nc2cccc(C(F)(F)F)c2)n1` has a remaining activity of 95.9%.
With `COc1ccc(OC)c2c(=S)c3ccccc3[nH]c12` the remaining activity was 107%.
The remaining activity of `O=C1NC(=O)C(c2cn(CCCn3ccnc3)c3ccccc23)=C1Nc1ccccc1` is reported as 102%.
`O=C1NC(=O)C(c2cn(CCCO)c3ncccc23)=C1c1cnccn1` gave a remaining activity of 84.2%.
`N#CC(C#N)=C(N)/C(C#N)=C/c1ccc(O)cc1` has a remaining activity of 103%.
For `OCC(O)CCON=C1C(c2c(O)[nH]c3ccccc23)=Nc2ccccc21` (centres unmarked), the remaining activity was 96%.
The remaining activity of `COc1ccc(CNC(=O)Nc2ncc([N+](=O)[O-])s2)cc1` is reported as 100%.
With `CNC(=O)c1cc(Oc2ccc(NC(=O)Nc3ccc(Cl)c(C(F)(F)F)c3)cc2)ccn1` the remaining activity was 99.7%.
`Cc1ccc(NC(=O)c2ccc(CN3CCN(C)CC3)cc2)cc1Nc1nc(-c2cccnc2)cs1` gave a remaining activity of 97.4%.
`O=C(CCCc1ccc(-c2ccccc2F)cc1)Nc1ccc(O)cc1` gave a remaining activity of 105%.
For `Cc1nc(-c2ccccc2)c(-c2ccncc2)o1`, the remaining activity was 102%.
`Cn1c2ccccc2c2c3c(c4c5ccccc5n(CCC#N)c4c21)CNC3=O` gave a remaining activity of 81.1%.

Some of these lines once more (block 1):
The inhibition was 41% (YES1 (Homo sapiens, UniProt P07947)).
For Tyrosine-protein kinase ABL1, phosphorylated (ABL1, Homo sapiens, UniProt P00519, F317L): inhibition read 19%.
The inhibition was 7% (CLK2 (Homo sapiens, UniProt P49760)).
